Assay results collected from several papers.
A part holds a random share of what one study measured.

Block 1 — method: RNAcompete; molecule type: RNA; matrix: in vitro; tested at: 20 nM; notes: 7-mer, probes averaged, single round; reference: mean of 7-mers; reading: higher = stronger binding; measurement: 7-mer Z-score
Target: PABPC1L2, full length, GST fusion (mouse, UniProt A0ABA7IW68)
Target sequence (chain): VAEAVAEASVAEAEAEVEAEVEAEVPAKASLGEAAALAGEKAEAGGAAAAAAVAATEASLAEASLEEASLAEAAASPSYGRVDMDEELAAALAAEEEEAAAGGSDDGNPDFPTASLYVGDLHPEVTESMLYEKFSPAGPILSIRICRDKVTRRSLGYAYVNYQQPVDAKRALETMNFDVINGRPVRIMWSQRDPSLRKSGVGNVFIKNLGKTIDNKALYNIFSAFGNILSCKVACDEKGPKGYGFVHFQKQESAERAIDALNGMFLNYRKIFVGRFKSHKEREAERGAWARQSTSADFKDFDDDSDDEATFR
UCGACAU: -0.173
UUAUGAG: -0.0953
AUUCAAA: 0.158
UGAAAUA: 0.244
ACAACAG: 0.294
CCACACG: -0.2
CGACAUA: 0.0986
GAAUGUG: -0.137
GUCGAUA: -0.32
ACUAUCU: -0.0917
GAAACUC: -0.0138
ACGUUAU: -0.255
UUGGAUC: -0.18
UCGACGU: -0.18
UCUGUAU: -0.296
GCCGAGA: -0.05
UGUCGCG: -0.371
GUGGAAG: -0.0482
GACCGUU: -0.374
UAGUAAC: -0.141
UUUCUUC: -0.378
UGGCGUG: -0.204
AAUCGGC: 0.234
GACGUUC: -0.298
GAUACUG: -0.17

Block 2 — method: RNA Bind-n-Seq; molecule type: RNA; matrix: in vitro; tested at: 20 nM; notes: 6-mer, flanks averaged, single round; added: 150 mM LiCl; reference: input library; reading: higher = stronger binding; measurement: 6-mer enrichment (R)
Target: TAR DNA-binding protein 43, full length, His tag (TARDBP, Homo sapiens, UniProt Q13148, residues 1-414)
CUAUGC: 0.892
AGCUAU: 0.88
CCGACC: 0.849
CGUCCU: 0.9
GUGAAG: 1.17
AUGCGC: 0.99
GCUUUA: 0.98
CGUAGA: 0.924
UACCCA: 0.933
CGUGAG: 1.04
CUCCGA: 0.852
CUAGGA: 0.851
AGACCA: 0.812
CUUGGU: 1.06
UCAGUC: 0.846
CUGAGU: 0.963
UUAGUC: 0.928
GAUCUU: 0.876
GCGUCU: 0.942

Block 3 — method: RNA Bind-n-Seq; molecule type: RNA; matrix: in vitro; tested at: 365 nM; reference: no-protein control; reading: higher = stronger binding; measurement: RBNS enrichment (R)
Target: RNA binding protein fox-1 homolog 2, RRM domain, GST-SBP tag (RBFOX2, Homo sapiens, UniProt O43251-10, residues 100-194)
Notes: natural RNA segment, single round, ends assumed
Constant ends, left off below: GGGAGUUCUACAGUCCGACGAUC … UGGAAUUCUCGGGUGCCAA
Target sequence (chain): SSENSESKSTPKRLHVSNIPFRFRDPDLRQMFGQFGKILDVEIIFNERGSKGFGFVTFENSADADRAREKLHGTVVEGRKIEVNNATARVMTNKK
AACAAUCUCUUGUGACUAAUGUCACUCAAAGCAUCUUGUAAAUCCUAGGGCUUCCUGGAAGUUAGUUGCCAAAGUCAUGCAAGCAUCACCUGUCAUUCUUGUGUUGGAGU: 0.515
AGCCAGGAUGCUCAGCAUUGGAAGACUGGUGUGUGAUGGCUGCUACCACCUCUCCCUGGACAGCAGCUAAGAGAAGACAGCAUCCCACGGACACAAGUAGAAAAAAGGAA: 1.81
GGCAGGCACAUCCUGGUACUGGCACAGACUGAAGAGUCUGUGUUUCUGUACCACUUGAGGUAUAUGUUUAGUUUUUUUACGUAUCUUCUAAGAAGCUCAGUUUUGCGGUU: 0.232
UUAAAAACAGCAACCCUGCCUACCGUUUUGAUGACCUUUUUCCAUAUUAAACAAGUUGAGAACAAAAGAGUGUCACCGCUUGCUUCUUACCUCUGGUUCUGAAAUCAGAU: 0.476
CCUUCCUCACCGCAGAUGUCUGUCUCCGAGAUCUGCAACCGUCUUGCUGACUAGGGCUUGGGCUAGAAGAGAAGAGCUGGAUUACUCGCUGUUUCCUGCACUUAAGCCUU: 0.574
UAUCCUAUAUGUAUUCCUUUCUAAACUGCUACUCAUGAAUGAGGAAAGUCUGAUGCUAAGAUACUGCCUGCACUGGAAUGUUAAACACUAAAUAUAUAACAAGCUGUGUU: 1.44
UAUAUGACUACGGCUCAUGCUUCCAAGGUCAGCUCACAUGUGACCUCUGUGAGCUGUUCCCUCGCCUGAAUUCAUUGCAUCUUACACCUUGGCAUGCCUUGCUCACAAUA: 41.1
CUUCCCAUCUUCUAUGCUUAUGUCCCACUGUGCCUGCUCCCCCAUCCUCUUUCUUGUAGCCUUUUGACUCAGUGGAAUCGAAGAUACAAUUUUCCUUAGACUACCUAGUG: 0.967
AAAUCUGUGUUUGCUUUCUGCUUGCUACAUUUGUCUCCCUUACUUUUCUUGAGCUAAAGACAGGCUUUUUCCACCGGCAUCAUCACUGCUAUCAUCAUUAACAGCGUAAU: 4.32
UUUUUUAAAUAACAUGUAUUAUGGUACAAUCAAAUUGUUCACAUUACCAAAGCAAUAUUUCUUUGGGAUUCAGUUCAGUGUUUGUGGCAUCUAAUCUGAUCCUUCUUUAC: 0.326
CUUGACUUCAGGCAGCAGAUUGUCUAGAAGCCUAAGGACAGCAAUUUCUCUGACAAGACAAAGUAGAUAUUUUAUACCAGGGGUUGGCAAACUACUGCCCACGGGCCGAA: 0.363
CAUAUAAAUACUCAACCACAUUUCAGCUUAAGCUUCUAAUUUCUCAAGAAGUUGAAACAGUUAGUUAUGUAGUUGAAGCAAUUUGUGUGCAAAGCCUACAUCUAAACACU: 0.282

Block 4 — method: protein binding microarray; molecule type: double-stranded DNA, one strand shown; matrix: in vitro; tested at: not given; reference: not given; reading: higher = stronger binding; measurement: E-score
Target: Histone acetyltransferase KAT6A, winged helix 2, GST fusion (KAT6A, Homo sapiens, UniProt Q92794, residues 85-181)
Notes: 8-mer, flanks averaged, mean of 2 arrays, mostly near background
Target sequence (chain): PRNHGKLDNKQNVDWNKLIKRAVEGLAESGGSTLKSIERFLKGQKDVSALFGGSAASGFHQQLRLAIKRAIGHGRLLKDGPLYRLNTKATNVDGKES
GTCCGGAC: 0.189
GAGCGCCC: 0.119
CACTCCGA: 0.0313
AATCTGCC: -0.0279
ATGCTCAC: -0.0226
CAGTGGCG: 0.13
GTGACCTA: -0.00647
GCTTGCGA: 0.319
ACCTCCGA: -0.00155
GAAAAGTA: -0.11
AAGGTGAG: -0.125
ACATAGGG: -0.0648
AAAGCTGA: 0.14
GAGCTGAA: -0.0101
CTATCTCC: -0.158
CCAACTGG: 0.0406
AGGCGACC: 0.0611
AACCGCTT: -0.00217
AGAGAAGC: 0.0598
AATAAGGG: -0.165
GAACCACC: -0.0411
GCCCGACA: 0.152
TAATTAGA: 0.0171
ACAACGAT: 0.0688
ATTCAAAG: -0.00138

Block 5 — method: aptamer microarray, sandwich; molecule type: DNA with 2'F-ANA; matrix: in vitro; tested at: 200 nM; added: Cy3 exosite-II aptamer, 400 nM; reading: higher = stronger binding; measurement: mean fluorescence intensity; strand: GGTTGGTGTGGTTGG
Target: Prothrombin, mature alpha-thrombin (F2, Homo sapiens, UniProt P00734)
Notes: whole 15-mer aptamer, many near background
2'F-ANA at 1 2 4 6 9 11 15: 89.6 a.u.
2'F-ANA at 2 5 6 7 9 13 14 15: 47.3 a.u.
2'F-ANA at 1 2 3 4 5 7 9 11 13 14 15: 95.8 a.u.
2'F-ANA at 3 4 7 9 11 12 13 14: 368 a.u.
2'F-ANA at 2 4 5 6 7 9 10 11 12 13 14 15: 44.7 a.u.
2'F-ANA at 2 4 5 6 7: 70.6 a.u.
2'F-ANA at 5 7 9 10 12: 57.4 a.u.
2'F-ANA at 11 14 15: 177 a.u.
2'F-ANA at 3 4 5 7 10 11 13 14: 68.9 a.u.
2'F-ANA at 4 7 8 11 12 14: 208 a.u.
2'F-ANA at 2 4 5 6 8 10 11 12 15: 57.3 a.u.
2'F-ANA at 2 3 4 6 7 8 9 10 11 12 14 15: 138 a.u.
2'F-ANA at 2 3 4 6 10 11 14: 160 a.u.
2'F-ANA at 1 6 13 15: 133 a.u.
2'F-ANA at 2 4 5 7 9 11 12 13 14: 44.4 a.u.
2'F-ANA at 1 2 3 5 6 8 9 11 12 13 14 15: 50.4 a.u.
2'F-ANA at 2 5 6 8 9 10 12 15: 51.5 a.u.
2'F-ANA at 2 3 4 5 6 8 9 10 11 13: 56.3 a.u.
2'F-ANA at 1 2 3 9 11 12 13: 284 a.u.
2'F-ANA at 5 6 7 14 15: 40.7 a.u.
2'F-ANA at 2 5 7 11 12 13 14: 46.4 a.u.
2'F-ANA at 1 2 3 4 6 7 8 10 12 13 15: 60.6 a.u.
2'F-ANA at 2 5 6 9: 93.2 a.u.
2'F-ANA at 1 3 4 8 9 10 11: 61.9 a.u.

Block 6 — method: RNA Bind-n-Seq; molecule type: RNA; matrix: in vitro; tested at: 200 nM; notes: whole 134-nt RNA, ends assumed; added: 150 mM KCl; reference: input library; reading: higher = stronger binding; measurement: log2 enrichment
Target: Ras GTPase-activating protein-binding protein 1, full length (G3BP1, Homo sapiens, UniProt Q13283)
Chain of UniProt Q13283 (whole entry, looked up): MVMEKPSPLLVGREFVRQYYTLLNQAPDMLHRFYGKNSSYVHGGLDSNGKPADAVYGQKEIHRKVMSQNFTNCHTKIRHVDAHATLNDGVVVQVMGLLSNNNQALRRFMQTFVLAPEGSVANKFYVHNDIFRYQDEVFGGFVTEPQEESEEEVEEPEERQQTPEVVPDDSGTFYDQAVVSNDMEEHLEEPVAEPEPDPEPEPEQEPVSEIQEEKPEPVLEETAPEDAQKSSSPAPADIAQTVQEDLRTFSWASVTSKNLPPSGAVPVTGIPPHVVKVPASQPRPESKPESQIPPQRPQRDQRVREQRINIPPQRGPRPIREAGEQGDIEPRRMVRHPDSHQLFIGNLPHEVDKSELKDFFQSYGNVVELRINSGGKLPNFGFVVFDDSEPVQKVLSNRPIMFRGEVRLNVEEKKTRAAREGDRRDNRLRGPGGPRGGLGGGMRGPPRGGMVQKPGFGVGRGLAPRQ
Constant ends, left off below: GGGAGUUCUACAGUCCGACGAUC … UGGAAUUCUCGGGUGUCAAGG
UAACUUUAGAGGAGGAUCUGAUGGAUAUGGCAGCGGACGUGGAUUUGGGGAUGGCUAUAAUGGGUAUGGAGGAGGACCUGGAGGUGGCAA: 0.366
ACCAUGCAGGGGGGCAUCUUUGGGAAGUGGGGCAAGGGGGGGAUAGGGAGGGGGGUAACACUUUGGGAACAGGUGGUCCCAGGUCGUUUC: 1.45
CCUCAAGUCCUGUGCUACACAUCGUAUGUACCGAAUCGGUGGGUGGGGUGGGAAAGUAUUAUGUUACGCCGUUCGGAUCUGCACUUCCAG: 1.06
UAACUUUAGAGGAGGAUCUGAUGGAUAUGGCAGUGGACGUGGAUUUGGGGAUGGCUAUAUUGGGUAUGGAGGAGGACCUGGAGGUGGCAA: 0.425
CUCAAGUCCUGUGCUACACAUCGUAUGUACCGAAUCGGAAAAAGGUUUGGAGGAAAGUAUUAUGUUACGCCGUUCGGAUCUGCACUUCCA: -0.844
UACAUUCUUUACCCCUUGUUUUAAUUUGAACCCCACCAUAUGGAUUUUUUUCCUUAAGAAAAUCUCCUUUUAGGAGAUCAUGGUGUCACA: -0.199
GUCCUGUGCUACACAUCGUAUGUACCGAAUCGGGGUUUUUUUGGGGUUUGGGGAGGGGAAAGUAUUAUGUUACGCCGUUCGGAUCUGCAC: 0.369
UCUAUGUAGCAUCCAGGUACUACUUCCUUUGGAAUGUCAGUAUUUAAUCUGAGCAAUGCGAUUGUGGGCAGUGGAAUCCUUGGGCUUUCU: -0.516
CACAGACAUCACGCACCCACACAGACACAGAGGGAAGGGGUUGGGAUGGGGACAGGGUGCACAGCAGGGCGGGGUAGGACCCCAGCCCCU: 1.78
UCAAGUCCUGUGCUACACAUCGUAUGUACCGAAUCGGGUGGGAAAGGGUUUGGGAAAGUAUUAUGUUACGCCGUUCGGAUCUGCACUUCC: 0.881
UCAAGUCCUGUGCUACACAUCGUAUGUACCGAAUCGGGGCCCGGCCCGGGCCCGGAAAGUAUUAUGUUACGCCGUUCGGAUCUGCACUUC: -1.19
ACCAUGCAGGUGGGCAUCUUUGGGAAGUGGGGCAAGGGGGGGAUAGGGAGGGGGGUAACACUUUGGGAACAGGAGGUCCCAGGUCGUUUC: 0.806
GUCCUGUGCUACACAUCGUAUGUACCGAAUCGGGGUUUUUGGGUUUUUGGUUUUUGGGAAAGUAUUAUGUUACGCCGUUCGGAUCUGCAC: -0.85
UGGGAGGUGGAUUUUGUUUAUUUUUUUAGCUCAUUUCCAGGGGUGGGAAUUUUUUUUUAAUAUGUGUCAUGAAUAAAGUUGUUUUUGAAA: -0.488

A few entries again (block 1):
ACUAUCU: -0.0917
GAAACUC: -0.0138
ACGUUAU: -0.255
UUGGAUC: -0.18
UCGACGU: -0.18
UCUGUAU: -0.296
GCCGAGA: -0.05
UGUCGCG: -0.371
GUGGAAG: -0.0482
GACCGUU: -0.374
UAGUAAC: -0.141
UUUCUUC: -0.378
UGGCGUG: -0.204
AAUCGGC: 0.234
GACGUUC: -0.298
